Published values gathered from unrelated publications.
Numbered parts are unrelated; each lists some results of a single study.

Sample 1 — technique: protein-binding microarray; molecule type: double-stranded DNA, one strand shown; sample: in vitro; tested at: 940 nM top; setting: 60-bp whole probe; with: salmon DNA 0.4 mg/ml; reference: random background probes; reading: higher = stronger binding; all sequences stand within: GCCTAGCAC … GTCTTGATTCGCTTGACGCTGCTG
Target: Interferon regulatory factor 5, full length, phosphomimetic (IRF5, Homo sapiens, UniProt Q13568-2, residues 1-514, S451D/S453D/S456D/S462D)
| Oligonucleotide | fitted relative affinity [z-score] |
| --- | --- |
| GACGGACTGGGGTTACGGGACGTGCTA | -0.311 |
| TCTCTTTTTGCTTTCTTTATGTGCTAG | 4.88 |
| AACCATTTTGTTTTTCATTAGTGCTAG | 1.35 |
| GACGGTATCGACACTAGGGACGTGCTA | 3.62 |
| TTAGATATCAGTAACGATTAGTGCTAG | -0.0563 |
| TTAGATCTAAGTTTCGATTAGTGCTAG | 6.72 |
| TTAGGACTGGGGATTCGGTTAGTGCTA | -0.11 |
| GACGGACTGGGGACGGGGGACGTGCTA | 1.2 |
| TTAGATATCAGACTGGATTCGTGCTAG | -0.214 |
| GACGATAGCGGGACTGGAGACGTGCTA | -0.287 |
| TTACGTCTCCTTCTCCTTTAGTGCTAG | 1.2 |
| TTAGGTTTCGGCCTCGGTTAGTGCTAG | 9.42 |
| GACGGTATCGGTGTCGGGACGTGCTAG | 6.68 |
| TTAAGTATCCTTTTCCTTTAGTGCTAG | 1.29 |
| GGTGTAAGGAACTGAAGTGAGTGCTAG | -0.351 |
| CCCACCATCTAGTTCTGCTTGTGCTAG | 0.786 |
| GACGGTTTCGGTGTCGGGACGTGCTAG | 11.7 |
| GACGGCCTCGGACTGGGGACGTGCTAG | -0.759 |
| GACGTACTGGGTCTCGGGACGTGCTAG | -0.286 |
| TTAGAACAGGGGTTTCGATTAGTGCTA | 5.15 |
| TCATTTCTAAATTCCCTACTGTGCTAG | 1.4 |
| TTAGATATCTTTTTCCTAATGTGCTAG | 0.491 |
| AAGACCATCCTATGTAGATGTGTGCTA | -0.244 |
| TTAGATTCCAGTATCGATTAGTGCTAG | 5.25 |
| GGGGTTAGGGTCATTCATTCGTGCTAG | -0.249 |

Sample 2 — technique: RNA Bind-n-Seq; molecule type: RNA; sample: in vitro; tested at: 365 nM; reference: no-protein control; reading: higher = stronger binding
Target: RNA binding protein fox-1 homolog 2, RRM domain, GST-SBP tag (RBFOX2, Homo sapiens, UniProt O43251-10, residues 100-194)
Setting: natural RNA segment, single round, ends assumed
All sequences stand within: GGGAGUUCUACAGUCCGACGAUC … UGGAAUUCUCGGGUGCCAA
| Oligonucleotide | RBNS enrichment (R) |
| --- | --- |
| GGCCUUUCCUGUACACGCCUGUGACUGGCAGCCACAUGGUUUCUGCUUAUUAACGUGAGCCUCCCUGUUGGUGAAAUGGUGUAGCUGGGAACGGACAGCAAAGGUGCAGG | 0.492 |
| GGGCAUCUUUAGUUCCAAGAACUGGAAGCCAGAGCUGCAGGCUCCUCCCACCUCUCUCCAGGCUGGUGUUGACUGGGCCCGGAAAUCAAUCCCCAGCACUUACUUCUCAC | 0.43 |
| UUCAUUCUCUGUAACUUCAGUUCUGGUGUUUUCCUUGAGUAUCUACUUGGCUUCUCGUGGUUUUUCCCACCCCAGCUGCCCCAGCACGCGGGACCCAUAGCACACCCCUU | 1.76 |
| ACUGUACUCUAGCCUGGGUAACAGCCAGACCCUGUCUCAAAAAAAAAAACAAUUUUUUUCAUAACAUAAUUCCCAUUUUUAUUUAUUUUGAGUCACUCAUAAUUAAUUGC | 0.693 |
| ACCAGGGGGUUAAUCUUGGCUCAGUUUCCUAAAAAGCAUUGAUUAAUUUAACUGGCUUUUAAAUAUCCCCUUCCGCUGAUAUUUGUUGUCAGCUGCCUACAGUUUAAUAU | 1.07 |
| AGAGCACAAGAGUAUGCGUACAUAGUUUACCAGGUAGUAGAAGUGUGUUAAAAUGUUCCUGUAAAAGAAACAUUGGUAAAUUUAAAUACAUACUGUUCUAAUUUUGUAUU | 0.769 |
| UCGGGGGCUUACUUGUGCAGUACUAAAAUCAAAGGAGCUGGUUCUUCUUUUCUCCCAAUCUUUUCUUAGUAAUGAACACACCUACAACUAGCCUGCCACUCCCAAUCACA | 0.586 |
| UGUCUGUAUAAAUCUGUCUUAUCUAGAACUUGUGCUGUCAGGGCACUCUUCCUCACGCUGUUGUUACUCAUGCACCAUUCAGACUUGUUAGAGUAGAUGUGGGUUUAGGA | 0.869 |
| UUCUAUUUGUCAGCUGUUGCUGCUGAGCCUGCUGGUGAACACCAUUGCAAGCAGUUGCUGAGCCUGCUGGUGAACACCAUUGCAAGCAGUUGCUGAGCCUGCUCGUGAAC | 9.56 |

Sample 3 — technique: protein binding microarray; molecule type: double-stranded DNA, one strand shown; sample: in vitro; tested at: not given; reference: not given; reading: higher = stronger binding
Target: Histone acetyltransferase KAT6A, both winged helices, GST fusion (KAT6A, Homo sapiens, UniProt Q92794, residues 1-181)
Setting: 8-mer, flanks averaged, mean of 2 arrays, mostly near background
Target sequence (chain): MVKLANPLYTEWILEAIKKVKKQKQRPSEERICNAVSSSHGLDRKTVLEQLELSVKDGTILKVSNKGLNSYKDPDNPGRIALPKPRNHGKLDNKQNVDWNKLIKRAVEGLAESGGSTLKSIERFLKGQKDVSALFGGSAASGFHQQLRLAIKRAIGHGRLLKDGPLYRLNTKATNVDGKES
| Oligonucleotide | E-score |
| --- | --- |
| TGTAAACA | -0.114 |
| CAAAGTGC | -0.122 |
| AAGCTGTA | -0.0315 |
| CATTGTAC | 0.0213 |
| ATGGTAAC | -0.0602 |
| AAAATAGC | -0.0085 |
| CTTTTCTA | -0.192 |
| AATTCTCT | -0.00243 |
| GCCCGGTA | 0.166 |
| GGAAACTA | -0.0226 |
| GATGATTA | 0.113 |
| GCGTGGAA | 0.156 |
| GGAAAAAA | 0.0857 |
| CTCCGGTC | 0.0254 |
| GAGAGAGC | -0.0248 |
| ACATGTAT | 0.0692 |
| GAGACTCC | -0.0294 |
| ATACTAAT | -0.0822 |
| CCATTATA | -0.0566 |
| GACGCCAA | -0.00148 |
| AGGAGGCG | 0.0712 |
| GGCTGGAC | -0.0283 |
| GTACACTA | -0.0352 |
| AGTGAGCC | -0.175 |

Sample 4 — technique: RNA Bind-n-Seq; molecule type: RNA; sample: in vitro; tested at: not given; reference: input RNA pool; reading: higher = stronger binding
Target: RING finger protein unkempt homolog, zinc fingers 1-6, GST-SBP tag (UNK, Homo sapiens, UniProt Q9C0B0, residues 30-357)
UniProt Q9C0B0, sequence (30-357, looked up): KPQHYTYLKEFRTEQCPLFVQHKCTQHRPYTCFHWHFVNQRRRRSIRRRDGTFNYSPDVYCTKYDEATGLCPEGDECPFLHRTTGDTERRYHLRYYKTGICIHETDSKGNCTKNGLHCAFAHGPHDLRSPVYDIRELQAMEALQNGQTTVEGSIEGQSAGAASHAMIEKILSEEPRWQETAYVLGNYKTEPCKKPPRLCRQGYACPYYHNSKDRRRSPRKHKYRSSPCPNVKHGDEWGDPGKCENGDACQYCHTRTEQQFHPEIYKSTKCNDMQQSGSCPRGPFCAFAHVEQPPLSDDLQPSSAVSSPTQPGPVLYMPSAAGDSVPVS
Setting: RNA with constant flanks, human and mouse sites, ends assumed
All sequences stand within: GGGAGUUCUACAGUCCGACGAUC … CAACAGAGGAUUGAGCAUCA
| Oligonucleotide | bound/input enrichment |
| --- | --- |
| GCAACGGAGAUAAAUUCCCGGAACCGCGAUUCGGCGUGUCAGGAAUUCGAAUUUAGAGUUUAAUUUCUCAGAGCAUUCUCUCCAGGAAGAAUUUUUACAGUAUCUCAAAGACUUCACUUG | 0.824 ratio |
| UUCAGAUAUUCUUAGUAACCAAAACAGUGACUCAUGCAGUUGAGAGAGCCUUUGGGCUGUCAGUUUACAGUACAUCAGGCUUGCUGAGGCUAAGCAAAUCAGAAAGGUGCCAUGUUUAUA | 0.239 ratio |
| AACACUAGACAAAAAAAAAUCAACUGUAUUUGUAAAAAUUUACCUCAAACCAUUUAAUUUUAUAGUGUGAUUGGUUAAUCCCAGGGCAUUUGGUAUGAACCAAAGUGCAUUCCUUUUUUU | 1.05 ratio |
| CUGCCCUACGCGCUGCAUAAGUGGAGCUCCUUCUCCUCCACCUACCUUCCCGAGAACAUUUUAGUGGAUAAACCAAAUGAUCAGUCUUCCAGAUGGUCUUCAGAGAGCAACUAUCCUCCC | 0.998 ratio |
| UAUACUUCCCUGGGACCACGCAUAACUGAUGUAGCCACAUAGAGAGGAGUAGGCUGUCGGCUUAUUGACGUCUCCAAAUUGCAGCCUCACAUCUAAUGCUUACAAAGAUAAUGGAUCGCU | 0.205 ratio |
| CUGAGAAUCUAUCUUGAUGAAAGGAGAGAUGUCUUGGAUGACCUUGUAACAUUGCAUAAUUUUAGAAAUCAGUUCUUGCCAAAUGCACUGAGAGAAUUUUUUCGUCAUAUCCAUGCCCCU | 0.348 ratio |
| GCAUCCUGUGAAAAUACUCUUAAUACAUUAAGAUAUGCAAAUAGAGUAAAGGAGUUUGGAAUUAGUCCAUCAGACAUUCCCUUCUCACAGGGUAGUGGCAGUCGCCCUGAUCUCUCUCCU | 0.128 ratio |
| GAGCUUCACUCUUCUGAGAAAGGUUUAAAAGUAGAGGAAAAUAUUCAAAAGCAAAGUCAACAAACAAAGCUUUCUUCAGAUGAUAAAACCGAACGAAAAAGUAAACAUAGGAAUGAAAGG | 1.1 ratio |
| AGAACAAACAAAGGGCUGCAACUACGGCAUGGCAAUGACCAACGCGUGUUCCGUUUAGAGUUUGUCUCAAACCAAGAAUUCACCGAAAGUGAGUUUAUGAAGUGGAAAGAAGCGAUGUUC | 0.157 ratio |
| GAAAACGGCGAAAGGAGCGGAGGGGUGCCUCUGAUCAAGGCCCCCAAGAGAGAAACAGCAGAUGAAAAUGGUAAAACCCAGAGAGCUGAUGAUUUUGUCUUGAAGAAAAUAAAGAAGAAA | 0.25 ratio |
| CAGCUCACAACUUCCAUAGGAUCCAGUGACAUGCAUGUAACACCCCACCCCCAACACACACACACACAUAACUAUAAAUGACAGAGGAGAUCUUAAAGUACUAGUUAUAUACCAGAGCUC | 1.06 ratio |

Some of these lines once more (sample 3):
| Oligonucleotide | E-score |
| --- | --- |
| CTCCGGTC | 0.0254 |
| GAGAGAGC | -0.0248 |
| ACATGTAT | 0.0692 |
| GAGACTCC | -0.0294 |
| ATACTAAT | -0.0822 |
| CCATTATA | -0.0566 |
| GACGCCAA | -0.00148 |
| AGGAGGCG | 0.0712 |
| GGCTGGAC | -0.0283 |
| GTACACTA | -0.0352 |
| AGTGAGCC | -0.175 |
